Experimental data gathered from unrelated publications.
± marks the error that the study gave.

Structure (SMILES)	tested on	test	system	conditions	scale	quantity	value
O=C(O)CCCOc1ccc(F)cc1-c1cc(-c2ccccc2C(F)(F)F)n(-c2ccccc2)n1		item: CRE	Crl:CD(SD) rats, male, blood	iv, 25 µg/kg, 14 days		blood chemistry	0.37 ± 0.03 mg/dL
NC(=O)[C@H]1CCN(c2ncnc(N)c2F)C[C@@H]1N1CCC[C@@H](Nc2cc(Cl)cc(C(F)(F)F)c2)C1=O			B-cell malignancy patients	oral, 41 mg twice daily, dose		grade ≥3 leukocytosis	20%
N.N.[Cl][Pt][Cl]			nude mouse MCF7 xenograft	5 mg/kg, day 8		body weight	14.5 ± 1.25 g
CC(C)=CC1C(C(=O)OC(C#N)c2cccc(Oc3ccccc3)c2)C1(C)C (stereo not shown)		item: CYP3A5	human, age 5 years			enzyme contribution to clearance	0.24%
N[C@@H]1c2ccccc2OC12CCN(c1cnc3c(N4CCCc5ncccc54)n[nH]c3n1)CC2			patients advanced metastatic solid tumours	oral, 60 mg once daily, pooled cohort		decreased appetite TRAE incidence	12%
N=c1c2c(-c3ccccc3)c(-c3ccccc3)n(Cc3ccccc3)c2ncn1[C@H]1CC[C@H](O)CC1			Sprague-Dawley rat, male, urine	intravenous, 2 mg/kg	baseline: dose	unchanged drug excreted in urine	< 1%
O=C(Nc1ccccc1)C1CCN(C(=O)Oc2cccnc2)CC1			healthy women	oral, 60 mg, 7 days		back pain adverse events	0%
NC(=O)[C@@H]1CC(F)(F)CN1C(=O)c1ccc(N2CC(F)(F)C2)c(OCC2CC2)n1			C57BL/6 mice, plasma	intravenous, dose not given		dose-normalised AUC(0-inf)	585 kg·ng·h/mL/mg
CC(=O)c1c(C)c2cnc(Nc3ccc(C4CCN(CCS(C)(=O)=O)CC4)cn3)nc2n(C2CCCC2)c1=O			human, dose-escalation trial, plasma	oral, 50 mg twice daily, day 21, multiple doses		AUC(0-inf)	943 ng·h/mL
Clc1ccc(Cl)c(-c2cc(Cl)c(Cl)cc2Cl)c1			fresh water	20 °C, S30-2 sampler, 30 µm		log K(PDMS-water)	6.03 ± 0.02
CCCC1CCC(C2CCC(c3ccc(F)c(F)c3)CC2)CC1 (stereo not shown)		item: compound	human pregnant women, female fetuses, maternal serum	dose not given, paired maternal-cord samples, mean		concentration	0.81 ng/mL
C[C@]1(CO)Cc2ncn(-c3ccc(C#N)c(Cl)c3)c2C(=O)O1		investigator-assessed	human	10 mg single dose		subjects with drug-related TEAEs	0%
[Cl][212Pb][Cl]			athymic mice, C4-2 xenograft, bladder	intravenous, 2 h, 212Pb-labelled		tissue uptake	1.73 ± 0.1 %ID/g
Clc1ccc(-c2cc(Cl)c(Cl)c(Cl)c2)cc1			polyethylene-water partitioning	PCB compilation	baseline: maximum over minimum K	literature range factor	1
CC(C)Nc1ccnc(Nc2cccc(-c3cccnc3)c2)n1		item: globulin	mouse, blood	intraperitoneal, 10 mg/kg		blood chemistry	1800 mg/dL
O=S(=O)(Nc1ccccc1)c1ccc(NC(=S)Nc2ccccc2)cc1			mouse, male, large intestine	oral, 80 mg/kg daily, 14 days	baseline: body weight	relative organ weight	0.77%
CCS(=O)(=O)Nc1ccc(Oc2ccc(F)cc2F)c(-c2cn(C)c(=O)c3[nH]ccc23)c1		fibrin D-dimer increased, discontinuation	human, relapsed/refractory AML	oral, dose not given		treatment-emergent adverse events	0%

Structure (SMILES)	tested on	test	system	conditions	scale	quantity	value
COc1ncnn2ccc(-c3cnc4nc(C)n(Cc5nnc([C@@H](C)F)o5)c4c3)c12			human patients	oral, dose not given, all-grade adverse drug reaction		incidence of Dehydration	14.3%
c1ccc2c(c1)c1cccc3ccc4cccc2c4c31			fresh water	12 (unit not given), 20 °C, S30-2 sampler, 30 µm		log K(PDMS-water)	5.16 ± 0.03
CCN(CCO)CCCC(C)Nc1ccnc2cc(Cl)ccc12 (stereo not shown)			newly diagnosed glioblastoma patients	oral, 800 mg/dose, grade 4, with: radiotherapy and temozolomide		neutrophil decrease patients	66%
COc1cc(C[C@@H](C)N)c(OC)cc1I	Plasmodium falciparum		7G8			IC50	7.94 µM
CN1CC[C@@H](c2c(O)cc(O)c3c(=O)cc(-c4ccc(C(F)(F)F)cc4Cl)oc23)[C@@H]1CO		item: Pneumonia	relapsed B-cell malignancies or AML	oral, 100 mg, grade 3-4, continuous dosing		patients with adverse event	12.5%
O=C1Nc2cc3[nH]nc(-c4ccncc4)c3cc2CN1Cc1ccccc1		CTCAE v4.03	advanced solid tumour patients	intravenous, 3.6 mg/kg, schedules 1/2		patients with blurred vision	0%
CO[C@H]1C[C@@H]2CC[C@@H](C)[C@@](O)(O2)C(=O)C(=O)N2CCCC[C@H]2C(=O)O[C@H]([C@H](C)C[C@@H]2CC[C@@H](OC(=O)NCCOCCOCCOCCOCCOCCOCCOCCOCCC(=O)N3CCc4cc(Cn5nc(-c6ccc7oc(N)nc7c6)c6c(N)ncnc65)ccc4C3)[C@H](OC)C2)C[C@@H](O)[C@H](C)/C=C(\C)[C@@H](O)[C@@H](OC)C(=O)[C@H](C)C[C@H](C)/C=C/C=C/C=C/1C		phase 1 dose escalation, item: fatigue	advanced solid tumour patients	intravenous, 6 mg weekly, grade ≥3		dose-reducing adverse events	0%
COc1cc2c(cc1OC)CN(CCc1ccc(NC(=O)c3cccc4c(=O)c5cccc(OC)c5[nH]c34)cc1)CC2			CD-1 mouse, male, plasma	intraperitoneal, 10 mg/kg		Tmax	6 h
Cc1cccc(Cn2nc(C3CC3)c3c(NC(=O)c4cnc5cc(OCCN6CCN(C)CC6)ccn45)cccc32)n1		item: Anemia	human advanced solid tumours	oral, 400 mg, all-causality		adverse events incidence	57.1%
CCC[C@@](N)(CO)CCc1ccc(OCCCCCC(C)C)cc1			hound dogs, male	oral, 5 mg/kg, capsule, fed state, median		Tmax	6 h
CC(C)(O)c1cc(Nc2cc(Oc3cn(C4CC4)nc3C3CCOCC3)ccn2)ccn1		item: Diarrhea	patients with advanced cancer	oral, dose not given		treatment-emergent adverse events	0%
COc1ncccc1-c1cnn2ccc(N3CCN(C(=O)OC(C)C)CC3)nc12			rat, rotarod test, plasma	30 mg/kg, 180 min		drug concentration	3.2 µM
COc1ccc(C[C@@H]2NC(=O)[C@H]([C@@H](C)O)NC(=O)[C@@H]3[C@@H]4CCN3C(=O)[C@@H]3Cc5cn(c6ccc(F)cc56)CCCCCCN(Cc5ccc(cc5)CCNC(=O)[C@]5(C)CCCN5C2=O)C(=O)CCC(=O)N[C@@H](C)C(=O)N[C@H](CNC(=O)CCCCC[N+](C)(C)C)C(=O)N[C@@H](Cc2cccc(c2)CNC(=O)CO4)C(=O)N3)cc1		item: throat irritation	human	dose not given		participants with adverse event	2%
COCC(=O)O[C@]1(CCN(C)CCCc2nc3ccccc3[nH]2)CCc2cc(F)ccc2[C@@H]1C(C)C	Plasmodium falciparum		3D7			IC50	3.16 µM
COc1cc2c(Oc3ccc4[nH]c(C)cc4c3F)ccnc2cc1OCC1(N)CC1			paediatric recurrent refractory sarcoma	12 mg		Diarrhea incidence	63.6%
C[C@H]1COCCN1c1nc(NCc2cccnc2C(F)(F)F)c2cccnc2n1			anaesthetized rat	intravenous, 30 mg/kg	baseline: control	BP change	-13.9%
CC(C)C[C@@H]1NC(=O)CNC(=O)[C@H](CC(N)=O)NC(=O)[C@H](CCCNC(=N)N)NC(=O)[C@H]([C@@H](C)O)NC(=O)[C@@H]2CSSC[C@@H]3NC(=O)[C@H]([C@@H](C)O)NC(=O)CNC(=O)CNC(=O)[C@H](C(C)C)NC(=O)[C@@H]4CSSC[C@H](NC(=O)[C@H]([C@@H](C)O)NC(=O)[C@H](CSSC[C@H](NC(=O)[C@H](C(C)C)NC(=O)[C@@H]5CCCN5C1=O)C(=O)NCC(=O)N[C@@H](CCC(=O)O)C(=O)N[C@@H](CCCCN)C(=O)N4)NC(=O)CNC(=O)[C@@H]1CCCN1C(=O)[C@H]([C@@H](C)O)NC(=O)[C@H](CC(N)=O)NC3=O)C(=O)N[C@@H](CO)C(=O)N[C@@H](Cc1c[nH]c3ccccc13)C(=O)N1CCC[C@H]1C(=O)N[C@@H](C(C)C)C(=O)N2		HPLC	ammonium bicarbonate	180 µM, 7 days, pH 9.0, 25 °C, deamidation stability		remaining peptide	95.4 ± 0.6%

For quick reference, copied from above:
Structure (SMILES)	tested on	test	system	conditions	scale	quantity	value
O=S(=O)(Nc1ccccc1)c1ccc(NC(=S)Nc2ccccc2)cc1			mouse, male, large intestine	oral, 80 mg/kg daily, 14 days	baseline: body weight	relative organ weight	0.77%
CCS(=O)(=O)Nc1ccc(Oc2ccc(F)cc2F)c(-c2cn(C)c(=O)c3[nH]ccc23)c1		fibrin D-dimer increased, discontinuation	human, relapsed/refractory AML	oral, dose not given		treatment-emergent adverse events	0%
COc1ncnn2ccc(-c3cnc4nc(C)n(Cc5nnc([C@@H](C)F)o5)c4c3)c12			human patients	oral, dose not given, all-grade adverse drug reaction		incidence of Dehydration	14.3%
c1ccc2c(c1)c1cccc3ccc4cccc2c4c31			fresh water	12 (unit not given), 20 °C, S30-2 sampler, 30 µm		log K(PDMS-water)	5.16 ± 0.03
